# Experimental data from different studies.
# Each numbered part is a random draw from the data of one study; scales do not carry over between parts. Changes are numbered by the printed parent chain.

# Series 1 — method: RNA Bind-n-Seq; molecule type: RNA; sample: in vitro; concentration: 365 nM; relative to: no-protein control; reading: higher = stronger binding
# Target: RNA binding protein fox-1 homolog 2, RRM domain, GST-SBP tag (RBFOX2, Homo sapiens, UniProt O43251-10, residues 100-194)
# Notes: natural RNA segment, single round, ends assumed
# Construct (chain): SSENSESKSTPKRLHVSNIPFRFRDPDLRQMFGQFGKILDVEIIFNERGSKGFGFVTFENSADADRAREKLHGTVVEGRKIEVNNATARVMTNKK
Oligonucleotide,RBNS enrichment (R)
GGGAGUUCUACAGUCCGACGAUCAUAAAUAAGGAUCACACUGUAUUAGGGGUUAUGGCAACAUUAUUGAAUUUUUUAUGUACAUAAAGCCAUAUGUUUAGGGUGGUUUCUAUCUGUCUUGUUUUUCACUUAUAUGGAAUUCUCGGGUGCCAA,0.836
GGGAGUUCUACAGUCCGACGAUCUCUGCUGAGCACAGGGCUGUUGUCAUUUGUAAACGCAAACACUGUGGAGGUACUUCUCGCCAUCAGCUUCCUUCUUUACAAAACCAUCAUUUCAACAUGAAAAUUAUGUCUGGAAUUCUCGGGUGCCAA,0.344
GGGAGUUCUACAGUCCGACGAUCUGGCUUUACUGUUGGAAGUUGUCUAUUUCAACCUCAGAGUUUCCUAAUAUGGCGCUCCUGAUCUAUCUUACUCAAGUGCCCUCCCAUAUGUAUACCCCAACAUCUUUUCCUGGAAUUCUCGGGUGCCAA,0.702
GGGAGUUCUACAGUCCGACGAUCCCUGACUCCCAGGAUCCUCCUACCCUCAUCUCACAGAUAACUUCAUGCAUCAAACUGGAACCCCUACCUCAUAUUUCCUGCUCCAGGAAGGUUGAGGUUGAAAAAAAAGAUGGAAUUCUCGGGUGCCAA,2
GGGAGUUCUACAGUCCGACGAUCCUUACACAUUUGAGGACCGAAUCAACUUUGCCGUGUUCCCAUCCCUGCAGGGGGGCCCCCACAAUCAUGCCAUUGCUGCAGUAGCUGUGGCCCUAAAGCAGGCCUGCACCUGGAAUUCUCGGGUGCCAA,0.209
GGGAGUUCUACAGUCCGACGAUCCGCCACAGCCCUUUUGUCUCUGCAAACUGCCUUCUUCGGAAAGAAGAAGGUGGGAGGAUGUGAAUUGUUAGUUUCUGAGUUUUACCAAAUAAAGUAGAAUAUAAGAAGAAUGGAAUUCUCGGGUGCCAA,0.269
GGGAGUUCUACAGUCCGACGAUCGCAUAACCUAUGCCACGAUGGUGAGAUAAUGUGAAAAAGUGGUAUCCUCUGAUGUCAGCGUAUUAGUCUCAGUUUACAAAGUACUUAAUAAAACUAACUACUGUAAAACCUGGAAUUCUCGGGUGCCAA,0.296
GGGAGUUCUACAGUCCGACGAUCGUCACCAGUGUUUGGUACCCAAGUCGUUCCAGUGGGAACAAUGUCUGUUUGAGUAAACUAAGACUGACAGGGGAAUCGGGGUGCUCACAAGCGAGUCCCUCCAGCUGCUUUGGAAUUCUCGGGUGCCAA,0.552

# Series 2 — method: protein binding microarray; molecule type: double-stranded DNA, one strand shown; sample: in vitro; concentration: not given; relative to: not given; reading: higher = stronger binding
# Target: Histone acetyltransferase KAT6A, winged helix 2, GST fusion (KAT6A, Homo sapiens, UniProt Q92794, residues 85-181)
# Notes: 8-mer, flanks averaged, mean of 2 arrays, mostly near background
# Residues (chain): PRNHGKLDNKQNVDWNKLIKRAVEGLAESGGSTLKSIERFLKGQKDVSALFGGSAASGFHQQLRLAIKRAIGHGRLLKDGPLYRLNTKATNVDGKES
Oligonucleotide,E-score
GAGTATGA,-0.0663
AACAGCTT,-0.0156
ATTGGTTG,0.0019
AAGGCTCT,-0.163
TCGGGTAA,-0.103
AGCGACGC,0.11
CACGCAAC,0.122
CGAATCAG,0.0203
AGCGTACC,-0.0138
CCAACAGC,0.0908
CAAAGGTC,-0.082
TAAGAGCA,0.121
ATTTGACC,0.0129
ACTATAGA,-0.0501
ACCCTCCC,0.224
AGCTCACT,-0.191
CCAAGCCG,0.0337
ACCCGGCA,0.102
ACAGAACA,-0.0185

# Series 3 — method: DHFR PCA, deep sequencing; sample: yeast; with: (+)-ABA 0 µM; relative to: wild-type fitted maximum; reading: higher = stronger binding
# Target: ABI1, truncated, D143A, DHFR fusion (Arabidopsis thaliana)
# Notes: methotrexate growth selection, single substitutions
# Starting sequence: PYL1, truncated, DHFR fusion (Arabidopsis thaliana); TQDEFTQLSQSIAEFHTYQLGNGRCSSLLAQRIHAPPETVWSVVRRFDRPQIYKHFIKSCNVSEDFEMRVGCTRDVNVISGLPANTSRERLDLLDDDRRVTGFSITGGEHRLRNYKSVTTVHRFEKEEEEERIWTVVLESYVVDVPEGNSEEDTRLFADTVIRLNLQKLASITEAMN
Substitution,relative binding score [%]
V137F,-11.5
E130L,8.28
F66S,-0.279
V121P,-1.79
V40S,-1.88
Q7Y,24.1
E14G,1.42
V43G,-3.42
W41G,-0.771
A30M,31.3
I172P,-9.44
T17W,4.49
E152K,3.22
H122Y,1.18

# Series 4 — target: CCNB3, cyclin fold, Cln2 fusion (human); method: yeast growth competition, sequencing; sample: yeast; notes: weak parent motif; relative to: not given; reading: higher = stronger binding
# Starting sequence: E2F1 docking peptide (human); PPVKRRLDLETDH; partner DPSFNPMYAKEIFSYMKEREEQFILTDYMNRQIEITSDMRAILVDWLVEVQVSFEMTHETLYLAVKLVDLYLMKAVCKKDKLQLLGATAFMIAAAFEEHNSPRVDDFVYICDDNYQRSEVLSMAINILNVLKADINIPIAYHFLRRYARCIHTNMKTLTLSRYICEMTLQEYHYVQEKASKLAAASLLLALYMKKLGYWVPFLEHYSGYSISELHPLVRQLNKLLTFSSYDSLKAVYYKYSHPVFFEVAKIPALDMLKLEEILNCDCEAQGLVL
Substitution,normalised enrichment score
E10T,0.56
T11S,0.806
E10H,0.774
T11W,0.673
R5E,0.267
R5N,0.411
D8Y,0.0757
R6H,0.431
V3E,0.63
V3R,0.118
H13S,0.598
L7V,0.0929
P2C,0.394
D12C,0.456

# Series 5 — method: aptamer microarray, sandwich; molecule type: DNA with 2'F-ANA; sample: in vitro; concentration: 200 nM; with: Cy3 exosite-II aptamer, 400 nM; reading: higher = stronger binding; oligonucleotide: GGTTGGTGTGGTTGG
# Target: Prothrombin, mature alpha-thrombin (F2, Homo sapiens, UniProt P00734)
# Notes: whole 15-mer aptamer, many near background
Modification,mean fluorescence intensity [a.u.]
2'F-ANA at 1 3 5 7 11 13 14 15,50.6
2'F-ANA at 3 4 10 11 12 13,362
2'F-ANA at 2 4 10 11 14 15,57.6
2'F-ANA at 1 3 4 5 7 9 10 13,45.7
2'F-ANA at 1 2 3 4 6 8 10 13 14,47.5
2'F-ANA at 5 6 8 10 11,50.7
2'F-ANA at 5 8 10 13,52.5
2'F-ANA at 2 3 4 8 9 10 11 14,188
2'F-ANA at 2 4 5 10 12 13,115
2'F-ANA at 2 4 8 9 10 11 13 14 15,57.8
2'F-ANA at 3 5 6 8 9 12 13,167
2'F-ANA at 1 2 3 5 6 7 9 10 11 12 14 15,47.5
2'F-ANA at 1 2 4 6 7 10 12 13 15,54.8
2'F-ANA at 3 4 6 8 10 12 15,266
2'F-ANA at 5 6 7 8 9 12 13 14 15,47.2
2'F-ANA at 4 6 9 10 12 15,91.3
2'F-ANA at 4 7 8 12 15,791
2'F-ANA at 3 4 5 6 7 9 11 13 15,56.4
2'F-ANA at 1 2 4 8 9 15,196
2'F-ANA at 1 2 3 5 9 11 14 15,48.6
2'F-ANA at 1 4 6 8 9 10 11 14,47.4
2'F-ANA at 3 7 11 15,1110

# Excerpt of the above (series 5):
Modification,mean fluorescence intensity [a.u.]
2'F-ANA at 3 4 10 11 12 13,362
2'F-ANA at 2 4 10 11 14 15,57.6
2'F-ANA at 1 3 4 5 7 9 10 13,45.7
2'F-ANA at 1 2 3 4 6 8 10 13 14,47.5
2'F-ANA at 5 6 8 10 11,50.7
2'F-ANA at 5 8 10 13,52.5
2'F-ANA at 2 3 4 8 9 10 11 14,188
2'F-ANA at 2 4 5 10 12 13,115
2'F-ANA at 2 4 8 9 10 11 13 14 15,57.8
2'F-ANA at 3 5 6 8 9 12 13,167
